Experimental data collected from several papers.
Compare with care: the assays were run in different laboratories. Values joined by “and” are separate records of one study, mostly repeats; a detail may differ. ± marks the error that the study gave.
UniProt P30305, sequence (whole entry, looked up): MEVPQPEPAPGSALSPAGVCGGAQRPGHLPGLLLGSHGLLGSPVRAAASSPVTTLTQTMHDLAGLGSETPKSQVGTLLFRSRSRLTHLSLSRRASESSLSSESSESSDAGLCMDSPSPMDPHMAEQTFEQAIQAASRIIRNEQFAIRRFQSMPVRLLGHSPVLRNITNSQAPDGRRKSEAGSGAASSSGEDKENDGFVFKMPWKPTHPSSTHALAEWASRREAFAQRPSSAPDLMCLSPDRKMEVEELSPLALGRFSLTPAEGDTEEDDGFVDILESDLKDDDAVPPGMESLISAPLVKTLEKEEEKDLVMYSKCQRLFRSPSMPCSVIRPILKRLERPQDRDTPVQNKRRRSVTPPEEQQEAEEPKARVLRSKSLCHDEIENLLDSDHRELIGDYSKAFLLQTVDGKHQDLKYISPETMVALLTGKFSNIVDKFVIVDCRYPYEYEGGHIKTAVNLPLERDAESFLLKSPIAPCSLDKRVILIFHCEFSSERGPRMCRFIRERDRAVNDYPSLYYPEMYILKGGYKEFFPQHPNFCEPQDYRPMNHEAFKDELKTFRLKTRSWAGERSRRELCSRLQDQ
UniProt Q8NGU9, sequence (whole entry, looked up): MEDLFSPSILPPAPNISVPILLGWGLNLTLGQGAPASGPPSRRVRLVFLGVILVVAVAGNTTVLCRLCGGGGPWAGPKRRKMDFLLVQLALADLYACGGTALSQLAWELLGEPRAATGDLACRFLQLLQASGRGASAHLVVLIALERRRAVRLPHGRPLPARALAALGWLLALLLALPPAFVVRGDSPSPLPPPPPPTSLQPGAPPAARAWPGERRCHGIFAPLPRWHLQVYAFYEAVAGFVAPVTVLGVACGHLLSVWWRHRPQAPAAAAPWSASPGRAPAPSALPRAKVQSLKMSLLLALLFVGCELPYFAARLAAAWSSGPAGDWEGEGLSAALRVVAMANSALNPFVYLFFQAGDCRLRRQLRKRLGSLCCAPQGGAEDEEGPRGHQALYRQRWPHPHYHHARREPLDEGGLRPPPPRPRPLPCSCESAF
UniProt Q8NEB9, sequence (whole entry, looked up): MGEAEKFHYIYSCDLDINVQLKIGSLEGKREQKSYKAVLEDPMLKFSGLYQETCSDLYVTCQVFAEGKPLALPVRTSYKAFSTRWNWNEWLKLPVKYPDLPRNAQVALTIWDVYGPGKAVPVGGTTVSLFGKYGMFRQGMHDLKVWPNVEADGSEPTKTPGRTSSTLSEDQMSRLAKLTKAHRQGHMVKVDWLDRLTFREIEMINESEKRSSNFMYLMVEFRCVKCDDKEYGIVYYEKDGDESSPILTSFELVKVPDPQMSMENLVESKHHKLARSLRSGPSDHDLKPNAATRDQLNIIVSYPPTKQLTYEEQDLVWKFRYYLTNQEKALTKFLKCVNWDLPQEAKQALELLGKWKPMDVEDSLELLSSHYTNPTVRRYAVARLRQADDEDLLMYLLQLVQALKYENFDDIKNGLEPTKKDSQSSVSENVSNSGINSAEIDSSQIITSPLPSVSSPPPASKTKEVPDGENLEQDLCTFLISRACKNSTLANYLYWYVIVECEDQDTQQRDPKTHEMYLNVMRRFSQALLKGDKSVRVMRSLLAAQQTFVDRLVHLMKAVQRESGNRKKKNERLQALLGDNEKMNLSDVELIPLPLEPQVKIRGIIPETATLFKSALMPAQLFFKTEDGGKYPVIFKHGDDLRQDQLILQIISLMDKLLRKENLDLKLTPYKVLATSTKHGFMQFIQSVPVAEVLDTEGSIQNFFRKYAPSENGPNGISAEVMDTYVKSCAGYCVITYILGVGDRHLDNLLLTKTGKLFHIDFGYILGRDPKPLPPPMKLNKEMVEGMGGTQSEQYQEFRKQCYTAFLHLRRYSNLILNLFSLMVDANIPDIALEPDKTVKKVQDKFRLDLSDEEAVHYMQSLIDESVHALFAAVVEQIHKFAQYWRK
UniProt Q12884, sequence (whole entry, looked up): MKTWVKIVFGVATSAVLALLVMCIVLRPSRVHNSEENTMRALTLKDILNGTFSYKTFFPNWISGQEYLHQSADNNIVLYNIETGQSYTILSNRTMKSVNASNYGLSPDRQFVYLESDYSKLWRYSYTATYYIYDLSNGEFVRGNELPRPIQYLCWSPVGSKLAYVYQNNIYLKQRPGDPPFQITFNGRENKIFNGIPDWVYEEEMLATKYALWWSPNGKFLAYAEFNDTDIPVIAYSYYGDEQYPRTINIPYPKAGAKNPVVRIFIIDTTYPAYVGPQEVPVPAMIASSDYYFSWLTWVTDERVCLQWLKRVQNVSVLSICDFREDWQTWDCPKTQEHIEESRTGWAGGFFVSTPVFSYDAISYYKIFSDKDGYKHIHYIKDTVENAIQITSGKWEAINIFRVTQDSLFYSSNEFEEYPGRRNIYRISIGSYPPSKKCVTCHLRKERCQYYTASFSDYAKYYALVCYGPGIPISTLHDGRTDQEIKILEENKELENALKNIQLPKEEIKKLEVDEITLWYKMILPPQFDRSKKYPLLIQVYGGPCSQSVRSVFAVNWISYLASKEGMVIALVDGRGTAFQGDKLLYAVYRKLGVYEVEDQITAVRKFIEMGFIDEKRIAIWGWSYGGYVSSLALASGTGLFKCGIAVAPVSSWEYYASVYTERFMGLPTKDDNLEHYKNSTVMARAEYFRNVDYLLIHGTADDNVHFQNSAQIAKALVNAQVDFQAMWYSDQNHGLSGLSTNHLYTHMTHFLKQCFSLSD
UniProt P04843, sequence (whole entry, looked up): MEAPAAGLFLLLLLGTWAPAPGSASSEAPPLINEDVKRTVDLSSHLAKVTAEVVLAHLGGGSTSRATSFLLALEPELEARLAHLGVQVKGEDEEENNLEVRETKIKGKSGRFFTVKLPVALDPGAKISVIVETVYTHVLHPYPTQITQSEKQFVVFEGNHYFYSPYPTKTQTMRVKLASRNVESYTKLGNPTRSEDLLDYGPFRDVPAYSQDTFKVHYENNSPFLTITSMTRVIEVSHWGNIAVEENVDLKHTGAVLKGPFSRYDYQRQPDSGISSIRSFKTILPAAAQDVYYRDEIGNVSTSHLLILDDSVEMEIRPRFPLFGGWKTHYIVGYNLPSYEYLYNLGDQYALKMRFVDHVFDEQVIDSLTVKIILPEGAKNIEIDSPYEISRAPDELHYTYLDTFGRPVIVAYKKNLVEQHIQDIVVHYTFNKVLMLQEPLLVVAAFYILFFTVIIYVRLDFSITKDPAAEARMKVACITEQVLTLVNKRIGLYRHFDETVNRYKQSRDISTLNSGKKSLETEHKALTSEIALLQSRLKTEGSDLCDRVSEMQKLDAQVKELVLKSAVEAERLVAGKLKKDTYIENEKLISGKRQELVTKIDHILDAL

For `CC[C@H](C)[C@@H]1NC(=O)[C@@H]2CCCN2C(=O)[C@H](CC(C)C)NC(=O)[C@H](CC(C)C)NC(=O)CNC(=O)[C@@H](NC(=O)[C@@H](NC(=O)[C@H](CC(=O)O)NC(=O)CNC(=O)[C@@H](NC(=O)[C@H](C)NC(=O)CNC(=O)[C@H](CCCCN)NC(=O)[C@H](CC(C)C)NC(=O)[C@H](CC(C)C)NC(=O)[C@H](CCCCN)NC(=O)CNC(=O)[C@@H](NC(=O)[C@@H](N)CC(C)C)C(C)C)C(C)C)C(C)C)CSSC[C@@H](C(=O)O)NC1=O`, “log2 fold change” read -1.72 (RNA-seq, refers to: Nr4a1; mouse, traumatic brain injury model, frontal cortex and hippocampus; dose not given; reference: TBI alone).
For `CCCC[C@H](NC(C)=O)C(=O)N[C@@H](CO)C(=O)N[C@H](C(=O)N1CCC[C@H]1C(=O)N[C@@H](C)C(=O)N[C@@H](CCCNC(=N)N)C(=O)N[C@@H](CCCNC(=N)N)C(=O)N[C@@H](CCCNC(=N)N)C(=O)N[C@@H](CC(C)C)C(=O)N[C@@H](CCCC)C(=O)N[C@@H](CCCNC(=N)N)C(=O)N[C@@H](CC(=O)O)C(=O)N[C@@H](Cc1ccccc1)C(=O)N[C@@H](CCCCN)C(=O)N[C@@H](CCCNC(=N)N)C(=O)N[C@@H](CC(C)C)C(=O)N[C@@H](CCC(N)=O)C(N)=O)[C@@H](C)O`, the remaining peptide was 0% and 0.7% (proteinase K; LC-MS; 25 µM, 122.9 min, pH 7.4).
`C[C@@H](O)[C@@H](CO)NC(=O)[C@@H](CCCNC(=N)N)NC(=O)[C@@H]1CCCN1C(=O)[C@@H]1CSSC[C@H](NC(=O)[C@H](Cc2ccccc2)NC(=O)CN2CCN(CC(=O)O)CCN(CC(=O)O)CCN(CC(=O)O)CC2)C(=O)N[C@@H](Cc2ccc(O)cc2)C(=O)N[C@@H](Cc2ccccc2)C(=O)N[C@@H](CCC(N)=O)C(=O)N[C@@H](CC(N)=O)C(=O)N1` [gallium-68 labelled] gave a tissue uptake of 1.07 %ID/g (Wistar rat, blood; intravenous, 8 MBq, 60 min, group mean).
For `COc1cc(Nc2ncc(F)c(Nc3ccc4c(n3)NC(=O)C(C)(C)O4)n2)cc(OC)c1OC`, the IC50 was > 10 µM (CDC25B (Homo sapiens, UniProt P30305); enzyme activity, inhibitor).
For `O=S(=O)(c1ccc(O)cc1)c1ccc(O)cc1`, “late apoptotic cells” read 18.4 ± 8.56% (HepG2 spheroids, dissociated; annexin V-FITC/PI flow cytometry; 40 µM, 24 h).
`C#Cc1ccc2c(c1)C(c1ccccn1)=NCc1c(-c3cnco3)ncn1-2.Cl` has a solubility of 12 mg/mL (shake flask; aqueous buffer; 24 h, pH 2, 25 °C).
For `O=C(c1ccc(Cl)cc1)N1CCN2C(=O)N(OC(=O)N3CCOc4ccccc43)C(=O)C2C1` (stereo not drawn), the median ratio was 1.29 (FAP (Homo sapiens, UniProt Q12884); enzyme activity, inhibitor, MS-based ABPP; SW-620 conditioned medium; 10 µM, 1 h, 37 °C; reference: compound over DMSO, lower = stronger inhibition).
For `[Cl-].[Cl-].[Pt+2].[Ru+2].c1ccc(-c2nc3cc4ccccc4cc3nc2-c2ccccn2)nc1.c1cnc2c(c1)ccc1cccnc12.c1cnc2c(c1)ccc1cccnc12`, the survival rate was 70 ± 2.8% (Danio rerio; embryos; 75 µM, 72 h).
For `CC(C)CC(=O)OC[C@H]1O[C@@](C#N)(c2ccc3c(N)ncnn23)[C@H](O)[C@@H]1O`, “Papp A to B” read 0.208 ×10⁻⁶ cm/s (ABCB1 (Homo sapiens, UniProt P08183); Caco-2; 90 µM, 2 h).
For `CCN(CC)C(=O)[C@@H]1C=C2c3cccc4[nH]cc(c34)C[C@H]2N(C)C1`, “List of Complaints score” read 0 (refers to: intermittent shortness of breath; healthy volunteers; dose not given, 12 to 24 h; reference: placebo, direction not given).
`C[C@H]1CN(c2n[nH]c3nc(N[C@H]4CC[C@H](NS(=O)(=O)CCC(F)(F)F)CC4)ncc23)CCO1` gave a remaining binding of 1.23 (Dolichyl-diphosphooligosaccharide--protein glycosyltransferase subunit 1 (Homo sapiens, UniProt P04843); Kinobeads competition, refers to: RPN1; 0.8 µM, unit not given; reference: vehicle).
For `COc1cccc(-c2n[nH]c(SCc3ccccn3)n2)c1OC`, “revertant colonies per plate” read 16 (Salmonella typhimurium; Ames test, preincubation; TA98; 1.0 mg/plate, without S9).
`Oc1ccc2c3c1O[C@H]1[C@@H](O)CC[C@@]4(O)[C@@H](C2)N(CC2CCC2)CC[C@]314`: “log2 fold change” -0.13 (Probable G-protein coupled receptor 150 (GPR150, Homo sapiens, UniProt Q8NGU9); β-arrestin recruitment, TANGO luminescence, refers to: GPR150; concentration not given; reference: basal luminescence).
`COc1ccc(-n2nc(C(C)=O)s/c2=N\N=C(/C)c2ccc(NC(C)=O)cc2)cc1` has a viability of 3.18% (WI-38; 2.5 µM, 24 (unit not given)).
`OCc1ncc2n1-c1ccc(Cl)cc1C(c1ccccc1F)=NC2`: “metabolite to parent Cmax ratio” 4.36 (CYP3A4 (human); human, plasma; oral, 2 mg midazolam, Day 1, together with: single dose encorafenib and binimetinib; reference: 1-hydroxymidazolam over midazolam).
For `Cc1cc(C(=O)NC(C)(C)COc2cccc3c2C(N)=NS(=O)(=O)N3)cc(C)n1`, the revertant ratio was 1 (Escherichia coli; Ames test, initial; WP2 uvrA; 5000 µg/plate, together with: rat liver S9; reference: solvent control).
For `CC(C)(O)Cc1nc(N)[nH]c(=O)c1Br`, “minimum cytotoxic concentration” read > 100 µM (HeLa; cell morphology alteration).
`CC(=O)N1CCC(C(=O)N2CCN3C(=O)c4cc(-c5ccccc5)ccc4NC(=O)C3C2)CC1` (stereo not drawn) — result for “revertant fold increase”: 1.1 (Salmonella typhimurium; TA100; 1.58 µg/plate, together with: without S9; reference: vehicle control).
Under “relative enzyme contribution”, `CC1(C)[C@H](C(=O)OCc2cccc(Oc3ccccc3)c2)[C@@H]1C=C(Cl)Cl` is recorded as 4.37% (human microsomal CES2; IVIVE from expressed enzymes; human, 5 years old, expressed human CES2; 0.1 µM; reference: total hepatic CLint in vivo).
The inhibition of `COc1ccc(N2C(=O)N(c3c(C)cccc3Cl)Cc3cnc(Nc4ccc(C5CCN(C)CC5)cc4OC)nc32)nc1` is reported as 16% (PIK3C3 (Homo sapiens, UniProt Q8NEB9); kinase activity, inhibitor; 0.5 µM, VPS34).
`CO[C@H]1C[C@@H]2CC[C@@H](C)[C@@](O)(O2)C(=O)C(=O)N2CCCC[C@H]2C(=O)O[C@H]([C@H](C)C[C@@H]2CC[C@@H](OC(=O)NCCOCCOCCOCCOCCOCCOCCOCCOCCC(=O)N3CCc4cc(Cn5nc(-c6ccc7oc(N)nc7c6)c6c(N)ncnc65)ccc4C3)[C@H](OC)C2)C[C@@H](O)[C@H](C)/C=C(\C)[C@@H](O)[C@@H](OC)C(=O)[C@H](C)C[C@H](C)/C=C/C=C/C=C/1C` — result for “incidence of Rash TRAE”: 0% (patients with advanced solid tumours; intravenous, 1.6 mg/3 mg weekly, any grade).
`COc1cc2c(Oc3ccc4[nH]c(C)cc4c3F)ccnc2cc1OCC1(N)CC1` — result for “grade 3 Hyperthyroidism”: 0% (paediatric recurrent refractory sarcoma; 12 mg).
The tissue uptake of `CC[C@H](C)[C@H](NC(=O)[C@H](Cc1ccccc1)NC(=O)[C@H](CCC(=O)O)NC(=O)[C@H](CCCNC(=N)N)NC(=O)[C@H](C)NC(=O)[C@H](C)NC(=O)[C@H](CCC(N)=O)NC(=O)[C@H](CCC(=O)O)NC(=O)[C@H](CCC(=O)O)NC(=O)[C@H](CC(C)C)NC(=O)[C@H](Cc1ccc(O)cc1)NC(=O)[C@H](CO)NC(=O)[C@H](CO)NC(=O)[C@@H](NC(=O)[C@H](CC(=O)O)NC(=O)[C@H](CO)NC(=O)[C@@H](NC(=O)[C@H](Cc1ccccc1)NC(=O)[C@@H](NC(=O)CNC(=O)[C@H](CCC(=O)O)NC(=O)[C@H](C)NC(=O)CCc1c[nH]cn1)[C@@H](C)O)[C@@H](C)O)C(C)C)C(=O)N[C@@H](C)C(=O)N[C@@H](Cc1c[nH]c2ccccc12)C(=O)N[C@@H](CC(C)C)C(=O)N[C@H](C(=O)N[C@@H](CCCNC(=N)N)C(=O)NCC(=O)N[C@@H](CCCNC(=N)N)C(=O)N[C@@H](CCCCNC(=O)COCCOCCNC(=O)COCCOCCNC(=O)CC[C@H](NC(=O)CCCCCCCCCCCCCCCCC(=O)O)C(=O)O)C(=O)NCC(=O)NCC(=O)N[C@@H](CO)C(=O)N[C@@H](CCCCNc1c(NCCCCCN(O)C(=O)CCC(=O)NCCCCCN(O)C(=O)CCC(=O)NCCCCCN(O)C(C)=O)c(=O)c1=O)C(=O)O)C(C)C` [zirconium-89 labelled] is reported as 0.15 %ID/g (rat, duodenum; iv, 3 nmol/kg, 168 h, ex vivo).
`O=c1ccc2ccccc2o1` gave a chance response of 0.29% (NHEK; cell count; concentration not given, 6 h, PGC1alpha mitochondrial stress panel).

A few entries again:
For `CCCC[C@H](NC(C)=O)C(=O)N[C@@H](CO)C(=O)N[C@H](C(=O)N1CCC[C@H]1C(=O)N[C@@H](C)C(=O)N[C@@H](CCCNC(=N)N)C(=O)N[C@@H](CCCNC(=N)N)C(=O)N[C@@H](CCCNC(=N)N)C(=O)N[C@@H](CC(C)C)C(=O)N[C@@H](CCCC)C(=O)N[C@@H](CCCNC(=N)N)C(=O)N[C@@H](CC(=O)O)C(=O)N[C@@H](Cc1ccccc1)C(=O)N[C@@H](CCCCN)C(=O)N[C@@H](CCCNC(=N)N)C(=O)N[C@@H](CC(C)C)C(=O)N[C@@H](CCC(N)=O)C(N)=O)[C@@H](C)O`, the remaining peptide was 0% and 0.7% (proteinase K; LC-MS; 25 µM, 122.9 min, pH 7.4).
`C[C@@H](O)[C@@H](CO)NC(=O)[C@@H](CCCNC(=N)N)NC(=O)[C@@H]1CCCN1C(=O)[C@@H]1CSSC[C@H](NC(=O)[C@H](Cc2ccccc2)NC(=O)CN2CCN(CC(=O)O)CCN(CC(=O)O)CCN(CC(=O)O)CC2)C(=O)N[C@@H](Cc2ccc(O)cc2)C(=O)N[C@@H](Cc2ccccc2)C(=O)N[C@@H](CCC(N)=O)C(=O)N[C@@H](CC(N)=O)C(=O)N1` [gallium-68 labelled] gave a tissue uptake of 1.07 %ID/g (Wistar rat, blood; intravenous, 8 MBq, 60 min, group mean).
